{"data": "Measurements of several laboratories", "method": "steady-state kinetics", "B1": "ERAP1 K528R (Homo sapiens, UniProt Q9NZ08); chain MVFLPLKWSLATMSFLLSSLLALLTVSTPSWCQSTEASPKRSDGTPFPWNKIRLPEYVIPVHYDLLIHANLTTLTFWGTTKVEITASQPTSTIILHSHHLQISRATLRKGAGERLSEEPLQVLEHPRQEQIALLAPEPLLVGLPYTVVIHYAGNLSETFHGFYKSTYRTKEGELRILASTQFEPTAARMAFPCFDEPAFKASFSIKIRREPRHLAISNMPLVKSVTVAEGLIEDHFDVTVKMSTYLVAFIISDFESVSKITKSGVKVSVYAVPDKINQADYALDAAVTLLEFYEDYFSIPYPLPKQDLAAIPDFQSGAMENWGLTTYRESALLFDAEKSSASSKLGITMTVAHELAHQWFGNLVTMEWWNDLWLNEGFAKFMEFVSVSVTHPELKVGDYFFGKCFDAMEVDALNSSHPVSTPVENPAQIREMFDDVSYDKGACILNMLREYLSADAFKSGIVQYLQKHSYKNTKNEDLWDSMASICPTDGVKGMDGFCSRSQHSSSSSHWHQEGVDVKTMMNTWTLQRGFPLITITVRGRNVHMKQEHYMKGSDGAPDTGYLWHVPLTFITSKSDMVHRFLLKTKTDVLILPEEVEWIKFNVGMNGYYIVHYEDDGWDSLTGLLKGTHTAVSSNDRASLINNAFQLVSIGKLSIEKALDLSLYLKHETEIMPVFQGLNELIPMYKLMEKRDMNEVETQFKAFLIRLLRDLIDKQTWTDEGSVSERMLRSQLLLLACVHNYQPCVQRAEGYFRKWKESNGNLSLPVDVTLAVFAVGAQSTEGWDFLYSKYQFSLSSTEKSQIEFALCRTQNKEKLQWLLDESFKGDKIKTQEFPQILTLIGRNPVGYPLAWQFLRKNWNKLVQKFELGSSSIAHMVMGTTNQFSTRTRLEEVKGFFSSLKENGSQLRCVQQTIETIEENIGWMDKNFDKIRVWLQSEKLEHDPEADATG", "B2": "carbamoyl phosphate synthetase large subunit M174E (Escherichia coli, UniProt P00968); chain PKRTDIKSILILGAGPIVIGQACEFDYSGAQACKALREEGYRVILVNSNPATIMTDPEMADATYIEPIHWEVVRKIIEKERPDAVLPTMGGQTALNCALELERQGVLEEFGVTMIGATADAIDKAEDRRRFDVAMKKIGLETARSGIAHTMEEALAVAADVGFPCIIRPSFTEGGSGGGIAYNREEFEEICARGLDLSPTKELLIDESLIGWKEYEMEVVRDKNDNCIIVCSIENFDAMGIHTGDSITVAPAQTLTDKEYQIMRNASMAVLREIGVETGGSNVQFAVNPKNGRLIVIEMNPRVSRSSALASKATGFPIAKVAAKLAVGYTLDELMNDITGGRTPASFEPSIDYVVTKIPRFNFEKFAGANDRLTTQMKSVGEVMAIGRTQQESLQKALRGLEVGATGFDPKVSLDDPEALTKIRRELKDAGADRIWYIADAFRAGLSVDGVFNLTNIDRWFLVQIEELVRLEEKVAEVGITGLNADFLRQLKRKGFADARLAKLAGVREAEIRKLRDQYDLHPVYKRVDTCAAEFATDTAYMYSTYEEECEANPSTDREKIMVLGGGPNRIGQGIEFDYCCVHASLALREDGYETIMVNCNPETVSTDYDTSDRLYFEPVTLEDVLEIVRIEKPKGVIVQYGGQTPLKLARALEAAGVPVIGTSPDAIDRAEDRERFQHAVERLKLKQPANATVTAIEMAVEKAKEIGYPLVVRPSYVLGGRAMEIVYDEADLRRYFQTAVSVSNDAPVLLDHFLDDAVEVDVDAICDGEMVLIGGIMEHIEQAGVHSGDSACSLPAYTLSQEIQDVMRQQVQKLAFELQVRGLMNVQFAVKNNEVYLIEVNPRAARTVPFVSKATGVPLAKVAARVMAGKSLAEQGVTKEVIPPYYSVKEVVLPFNKFPGVDPLLGPEMRSTGEVMGVGRTFAEAFAKAQLGSNSTMKKHGRALLSVREGDKERVVDLAAKLLKQGFELDATHGTAIVLGEAGINPRLVNKVHEGRPHIQDRIKNGEYTYIINTTSGRRAIEDSRVIRRSALQYKVHYDTTLNGGFATAMALNADATEKVISVQEMHAQIK", "B3": "protein (Adiantum capillus-veneris, UniProt A0A4Y6I289); chain MTDAVENKQVEFGALEVEGIKFAPSVAALGSTKQLVLGGAGFRGLEISGNLVKFTAIGIYVDEAIIPHLSPKLHGKSIEELCNNELLFEEVLAAPFEKLVRVVFLLPLTGPQYSEKVVERMGLLPNPGIKEESTKQFLEIFKPENFPPRTSLICSFTEEALKVAFMKTDDFPEDADAVIEDKWLARAFLASIIGKDGVSPLAKLSFAERMSRCL", "B4": "CODH (Afipia carboxidovorans, UniProt P19920); chain MIPGSFDYHRPKSIADAVALLTKLGEDARPLAGGHSLIPIMKTRLATPEHLVDLRDIGDLVGIREEGTDVVIGAMTTQHALIGSDFLAAKLPIIRETSLLIADPQIRYMGTIGGNAANGDPGNDMPALMQCLGAAYELTGPEGARIVAARDYYQGAYFTAIEPGELLTAIRIPVPPTGHGYAYEKLKRKIGDYATAAAAVVLTMSGGKCVTASIGLTNVANTPLWAEEAGKVLVGTALDKPALDKAVALAEAITAPASDGRGPAEYRTKMAGVMLRRAVERAKARAKN", "B5": "POLK (Homo sapiens, UniProt Q9UBT6); chain MGLNDNKAGMEGLDKEKINKIIMEATKGSRFYGNELKKEKQVNQRIENMMQQKAQITSQQLRKAQLQVDRFAMELEQSRNLSNTIVHIDMDAFYAAVEMRDNPELKDKPIAVGSMSMLSTSNYHARRFGVRAAMPGFIAKRLCPQLIIVPPNFDKYRAVSKEVKEILADYDPNFMAMSLDEAYLNITKHLEERQNWPEDKRRYFIKMGSSVENDNPGKEVNKLSEHERSISPLLFEESPSDVQPPGDPFQVNFEEQNNPQILQNSVVFGTSAQEVVKEIRFRIEQKTTLTASAGIAPNTMLAKVCSDKNKPNGQYQILPNRQAVMDFIKDLPIRKVSGIGKVTEKMLKALGIITCTELYQQRALLSLLFSETSWHYFLHISLGLGSTHLTRDGERKSMSVERTFSEINKAEEQYSLCQELCSELAQDLQKERLKGRTVTIKLKNVNFEVKTRASTVSSVVSTAEEIFAIAKELLKTEIDADFPHPLRLRLMGVRISSFPNEEDRKHQQ", "B6": "LYS12 D271N (Saccharomyces cerevisiae, UniProt P40495); chain SLTIGLIPGDGIGKEVIPAGKQVLENLNSKHGLSFNFIDLYAGFQTFQETGKALPDETVKVLKEQCQGALFGAVQSPTTKVEGYSSPIVALRREMGLFANVRPVKSVEGEKGKPIDMVIVRENTEDLYIKIEKTYIDKATGTRVADATKRISEIATRRIATIALDIALKRLQTRGQATLTVTHKSNVLSQSDGLFREICKEVYESNKDKYGQIKYNEQIVDSMVYRLFREPQCFDVIVAPNLYGDILSNGAAALVGSLGVVPSANVGPEIVIGEPCHGSAPDIAGKGIANPIATIRSTALMLEFLGHNEAAQDIYKAVDANLREGSIKTPDLGGKASTQQVVDDVLSRL", "B7": "TylM1 H123N (Streptomyces fradiae, UniProt P95748); chain MAHSSATAGPQADYSGEIAELYDLVHQGKGKDYHREAADLAALVRRHSPKAASLLDVACGTGMHLRHLADSFGTVEGLELSADMLAIARRRNPDAVLHHGDMRDFSLGRRFSAVTCMFSSIGNLAGQAELDAALERFAAHVLPDGVVVVEPWWFPENFTPGYVAAGTVEAGGTTVTRVSHSSREGEATRIEVHYLVAGPDRGITHHEESHRITLFTREQYERAFTAAGLSVEFMPGGPSGRGLFTGLPGAKGETR", "B8": "enzyme A178R/D177A/G159A/M179S/P184R (Levilactobacillus brevis, UniProt Q03Q85); chain MKVTVVGCTHAGTFAIKQILAEHPDAEVTVYERNDVISFLSCGIALYLGGKVADPQGLFYSSPEELQKLGANVQMNHNVLAIDPDQKTVTVEDLTNHAQTTESYDKLVMTSGSWPIVPKIPGIDSDRVKLCKNWAHAQALIEDAKEAKRITVIGAGYIAAELAEAYSTTGHDVTLIARSARVMRKYFDADFTDVIEQDYRDHGVQLALGETVESFTDSATGLTIKTDKNSYETDLAILCIGFRPNTDLLKGKVDMAPNGAIITDDYMRSSNPDIFAAGDSAAVHYNPTHQNAYIPLATNAVRQGILVGKNLVKPTVKYMGTQSSSGLALYDRTIVSTGLTLAAAKQQGLNAEQVIVEDNYRPEFMPSTEPVLMSLVFDPDTHRILGGALMSKYDVSQSANTLSVCIQNENTIDDLAMVDMLFQPNFDRPFNYLNILAQAAQAKVAQSVNA", "note": "Compare with care: the assays were run in different laboratories. Numbers after ± are the reported error.", "sequence of UniProt P19337 (whole entry, looked up)": "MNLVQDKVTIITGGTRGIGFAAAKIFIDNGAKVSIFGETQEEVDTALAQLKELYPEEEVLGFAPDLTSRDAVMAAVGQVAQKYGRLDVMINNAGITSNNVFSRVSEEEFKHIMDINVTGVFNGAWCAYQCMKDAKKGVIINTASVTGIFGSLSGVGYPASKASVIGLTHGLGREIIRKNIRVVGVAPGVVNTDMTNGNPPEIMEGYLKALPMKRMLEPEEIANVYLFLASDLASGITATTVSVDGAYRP", "sequence of UniProt Q92903 (whole entry, looked up)": "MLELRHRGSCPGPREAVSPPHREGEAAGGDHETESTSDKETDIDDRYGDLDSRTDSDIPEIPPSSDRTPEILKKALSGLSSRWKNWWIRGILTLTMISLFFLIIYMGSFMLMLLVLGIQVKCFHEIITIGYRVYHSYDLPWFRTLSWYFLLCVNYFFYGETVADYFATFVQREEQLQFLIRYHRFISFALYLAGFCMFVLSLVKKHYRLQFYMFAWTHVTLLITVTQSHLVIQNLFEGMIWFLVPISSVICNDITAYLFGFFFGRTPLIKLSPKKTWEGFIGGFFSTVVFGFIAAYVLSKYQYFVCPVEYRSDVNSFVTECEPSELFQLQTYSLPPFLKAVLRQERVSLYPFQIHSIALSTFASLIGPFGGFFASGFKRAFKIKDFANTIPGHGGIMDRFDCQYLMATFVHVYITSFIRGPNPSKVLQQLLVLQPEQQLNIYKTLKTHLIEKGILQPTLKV", "sequence of UniProt Q3L245 (whole entry, looked up)": "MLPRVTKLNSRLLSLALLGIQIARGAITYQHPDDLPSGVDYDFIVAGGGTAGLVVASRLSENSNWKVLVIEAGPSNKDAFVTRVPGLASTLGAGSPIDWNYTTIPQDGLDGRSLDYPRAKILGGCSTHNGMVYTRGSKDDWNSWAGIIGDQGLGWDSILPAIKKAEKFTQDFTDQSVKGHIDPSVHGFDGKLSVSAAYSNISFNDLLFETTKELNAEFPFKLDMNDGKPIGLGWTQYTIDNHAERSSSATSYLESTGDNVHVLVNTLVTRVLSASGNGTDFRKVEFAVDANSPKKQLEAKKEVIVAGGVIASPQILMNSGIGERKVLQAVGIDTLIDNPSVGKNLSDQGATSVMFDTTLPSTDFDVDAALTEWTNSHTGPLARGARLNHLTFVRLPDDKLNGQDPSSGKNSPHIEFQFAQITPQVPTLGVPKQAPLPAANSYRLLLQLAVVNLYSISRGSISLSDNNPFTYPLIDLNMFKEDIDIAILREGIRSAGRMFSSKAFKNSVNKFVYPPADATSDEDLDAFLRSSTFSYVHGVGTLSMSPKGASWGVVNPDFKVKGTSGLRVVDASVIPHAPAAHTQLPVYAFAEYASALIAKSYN"}
{"Substance": "CDS1 (Homo sapiens, UniProt Q92903)", "substrate": "CCCCC/C=C\\C/C=C\\C/C=C\\C/C=C\\CCCC(=O)O[C@H](COC(=O)CCCCCCCCCCCCCCCCC)COP(=O)(O)O", "pH": "pH 8", "notes": "not purified", "kcat [s⁻¹]": "2.9 ± 0.3"}
{"Substance": "protein (Sinorhizobium meliloti, UniProt Q92WA3)", "substrate": "O=c1ccn([C@@H]2O[C@H](COP(=O)(O)OP(=O)(O)O[C@H]3OC[C@@H](O)[C@H](O)[C@H]3O)[C@@H](O)[C@H]2O)c(=O)[nH]1", "pH": "pH 7.6", "temperature": "37 °C", "with": "NAD+ 1 mM", "kcat [s⁻¹]": "13 ± 1.9"}
{"Substance": "B1 (ERAP1 K528R)", "substrate": "CC(C)C[C@H](N)C(=O)N[C@@H](CO)C(=O)N[C@@H](CCCNC(=N)N)C(=O)N[C@@H](Cc1c[nH]cn1)C(=O)N[C@@H](Cc1c[nH]cn1)C(=O)N[C@@H](C)C(=O)N[C@@H](Cc1ccccc1)C(=O)N[C@@H](CO)C(=O)N[C@@H](Cc1ccccc1)C(=O)N[C@@H](CCCNC(=N)N)C(=O)O", "temperature": "25 °C", "kcat [s⁻¹]": "0.679 ± 0.037"}
{"Substance": "alanine aminopeptidase (Neisseria meningitidis, UniProt Q9JYV4)", "substrate": "C[C@H](N)C(=O)Nc1ccc2c(CC(N)=O)cc(=O)oc2c1", "pH": "pH 7.5", "temperature": "37 °C", "kcat [s⁻¹]": "28.4 ± 1"}
{"Substance": "B2", "substrate": "Nc1ncnc2c1ncn2[C@@H]1O[C@H](COP(=O)(O)OP(=O)(O)OP(=O)(O)O)[C@@H](O)[C@H]1O", "pH": "pH 7.6", "notes": "KCl 100 mM", "with": "glutamine 10 mM, ornithine 10 mM", "kcat [s⁻¹]": "0.11 ± 0.01"}
{"Substance": "B3 (protein)", "substrate": "O=C(/C=C/c1ccc(O)cc1)c1c(O)cc(O)cc1O", "kcat [s⁻¹]": "157 ± 12.7"}
{"Substance": "Ptb (Listeria monocytogenes, UniProt Q8Y7B7)", "substrate": "CC(C)CC(=O)SCCNC(=O)CCNC(=O)[C@H](O)C(C)(C)COP(=O)(O)OP(=O)(O)OC[C@H]1O[C@@H](n2cnc3c(N)ncnc32)[C@H](O)[C@@H]1OP(=O)(O)O", "pH": "pH 7.5", "temperature": "25 °C", "notes": "apparent", "kcat [s⁻¹]": "1040 ± 12.2"}
{"Substance": "B4 (CODH)", "substrate": "O=C1C=CC(=O)C=C1", "pH": "pH 7.2", "temperature": "25 °C", "notes": "anaerobic", "with": "CO saturating", "kcat [s⁻¹]": 104}
{"Substance": "B5 (POLK)", "substrate": "Nc1ccn([C@H]2C[C@H](O)[C@@H](COP(=O)(O)OP(=O)(O)OP(=O)(O)O)O2)c(=O)n1", "pH": "pH 7.5", "temperature": "23 °C", "notes": "MgCl2 5 mM", "with": "G template", "kcat [s⁻¹]": "0.01 ± 0.001"}
{"Substance": "B6 (LYS12 D271N)", "substrate": "NC(=O)c1ccc[n+]([C@@H]2O[C@H](COP(=O)([O-])OP(=O)(O)OC[C@H]3O[C@@H](n4cnc5c(N)ncnc54)[C@H](O)[C@@H]3O)[C@@H](O)[C@H]2O)c1", "pH": "pH 7.5", "temperature": "25 °C", "notes": "potassium acetate 100 mM", "with": "Mg-cosubstrate varied; Mg2+ 10 mM", "kcat [s⁻¹]": "0.026 ± 0.002"}
{"Substance": "B7 (TylM1 H123N)", "substrate": "Cc1cn([C@H]2C[C@H](O)[C@@H](COP(=O)(O)OP(=O)(O)O[C@H]3O[C@H](C)[C@@H](O)[C@H](N)[C@H]3O)O2)c(=O)[nH]c1=O", "temperature": "25 °C", "with": "SAM", "kcat [s⁻¹]": "0.0126 ± 0.0003"}
{"Substance": "B8", "substrate": "NC(=O)C1=CN([C@@H]2O[C@H](COP(=O)(O)OP(=O)(O)OC[C@H]3O[C@@H](n4cnc5c(N)ncnc54)[C@H](O)[C@@H]3O)[C@@H](O)[C@H]2O)C=CC1", "pH": "pH 7.5", "temperature": "37 °C", "notes": "per site", "kcat [s⁻¹]": "2.9 ± 0.4"}
{"Substance": "BaiA2 (Clostridium scindens, UniProt P19337)", "substrate": "C[C@H](CCC(=O)SCCNC(=O)CCNC(=O)[C@H](O)C(C)(C)COP(=O)(O)OP(=O)(O)OC[C@H]1O[C@@H](n2cnc3c(N)ncnc32)[C@H](O)[C@@H]1OP(=O)(O)O)[C@H]1CC[C@H]2[C@@H]3CC[C@@H]4CC(=O)CC[C@]4(C)[C@H]3C[C@H](O)[C@]12C", "pH": "pH 8.7", "temperature": "37 °C", "with": "NADH", "kcat [s⁻¹]": 0.152}
{"Substance": "pdh1 (Macropsalliota meleagris, UniProt Q3L245)", "substrate": "CN(C)c1ccc2nc3ccc(N(C)C)c([N+](=O)[O-])c3[s+]c2c1", "pH": "pH 7.5", "temperature": "22 °C", "notes": "apparent", "kcat [s⁻¹]": "0.34 ± 0.08"}
{"note": "Repeated from above:"}
{"Substance": "B1 (ERAP1 K528R)", "substrate": "CC(C)C[C@H](N)C(=O)N[C@@H](CO)C(=O)N[C@@H](CCCNC(=N)N)C(=O)N[C@@H](Cc1c[nH]cn1)C(=O)N[C@@H](Cc1c[nH]cn1)C(=O)N[C@@H](C)C(=O)N[C@@H](Cc1ccccc1)C(=O)N[C@@H](CO)C(=O)N[C@@H](Cc1ccccc1)C(=O)N[C@@H](CCCNC(=N)N)C(=O)O", "temperature": "25 °C", "kcat [s⁻¹]": "0.679 ± 0.037"}
